Measurements from different studies.
A part holds a random share of what one study measured. Positions count from the first letter of the parent shown.

Block 1 — technique: protein binding microarray; form: double-stranded DNA, one strand shown; sample: in vitro; tested at: not given; reference: not given; direction: higher = stronger binding
Target: Histone acetyltransferase KAT6A, both winged helices, GST fusion (KAT6A, Homo sapiens, UniProt Q92794, residues 1-181)
Notes: 8-mer, flanks averaged, mean of 2 arrays, mostly near background
Construct (chain): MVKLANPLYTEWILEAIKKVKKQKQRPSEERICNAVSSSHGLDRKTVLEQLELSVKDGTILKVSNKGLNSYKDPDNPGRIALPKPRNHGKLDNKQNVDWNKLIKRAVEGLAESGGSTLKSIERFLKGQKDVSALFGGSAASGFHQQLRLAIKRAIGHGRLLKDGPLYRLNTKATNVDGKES
| Oligonucleotide | E-score |
| --- | --- |
| AAGTGTCC | 0.0215 |
| CCTTCTGC | -0.0446 |
| ATATTCTA | 0.0691 |
| ATGCCCAG | -0.176 |
| CGGCAACG | 0.268 |
| AGTCGCTA | -0.129 |
| CGATCCAG | -0.132 |
| AAGTGATA | -0.133 |
| ATCTTAAG | -0.128 |

Block 2 — technique: RNA Bind-n-Seq; form: RNA; sample: in vitro; tested at: not given; reference: input RNA pool; direction: higher = stronger binding
Target: RING finger protein unkempt homolog, zinc fingers 1-6, GST-SBP tag (UNK, Homo sapiens, UniProt Q9C0B0, residues 30-357)
Chain of UniProt Q9C0B0 (30-357, looked up): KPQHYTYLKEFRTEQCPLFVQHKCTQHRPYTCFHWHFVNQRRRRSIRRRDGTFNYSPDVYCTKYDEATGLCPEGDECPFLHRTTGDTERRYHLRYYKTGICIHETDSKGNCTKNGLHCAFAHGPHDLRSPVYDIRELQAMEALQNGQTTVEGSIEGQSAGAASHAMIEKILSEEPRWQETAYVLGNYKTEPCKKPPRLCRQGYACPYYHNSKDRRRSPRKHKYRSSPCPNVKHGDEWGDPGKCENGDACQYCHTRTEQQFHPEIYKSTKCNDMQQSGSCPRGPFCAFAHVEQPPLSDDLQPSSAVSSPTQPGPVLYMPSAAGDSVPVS
Notes: RNA with constant flanks, human-mouse chimeric sites, ends assumed
All sequences stand within: GGGAGUUCUACAGUCCGACGAUC … CAACAGAGGAUUGAGCAUCA
| Oligonucleotide | bound/input enrichment [ratio] |
| --- | --- |
| GAUCCACAGUGGUCUGAGGAGCAACUCAUUGCUGCAAAAUUCUGUUUUGCUGGCCUUGUUAUAGGGCAGACUGAAGUGGACAUCAUGAGUCAUGCUACACAGGCUAUUUUUGAAAUUCUG | 0.153 |
| UUACCCGAGAACGAGGAUGAAUUGGAGAGCACCAACAGACGCUAUACCAAGAGGGACUGCAGCACUUUCCUCAGAACUAGUGAGACGGGCAUCGUGGACCAGGUCAUGGUCACUCUCAAC | 0.246 |
| UCAGGAACUCAGACAAACAUGAAUGUAAAUGAAGUCAUUAGCAACAGAGCAAUUGAAAUGUUAGGAGGUGAACUUGGCAGCAAGAAGCCUGUGCACCCCAAUGAUCAUGUUAAUAAAAGC | 0.226 |
| CACGUGUCUGCAGUACUUGAUGUGGACUACUCUCCCACUGGGAAGGAGUUUGUGUCUGCCAGCUUUGAUAAGUCUAUUAGAAUCUUUCCUGUGGACAAAAGUCGAAGCAGGGAAGUGUAU | 0.193 |
| UAUAAUAAUCAUGAAAUUCGUUCCGGGAAGCACAUUGGUGUCUGCAUCUCAGUUGCCAACAAUAGGCUUUUUGUGGGCUCGAUUCCUAAGAGUAAAACCAAGGAACAGAUUCUUGAGGAA | 1.17 |
| AGAUUCCCCCUCCUGAGACCUCCUCCGAAGUUGGAGUCUCUUACAGAUGCCUCAUCCCCUGUUAGUAUUUUGGUCUGGACCACCCAGCCUUGGACAAUUCCCGCCAACCAGGCAAUUUGC | 0.889 |
| GCGGCAGAAUCAUGGUGGACAUAAUGCAGCUCCCCAAAGCGCGCGUCAACGCCAGCAUGUUACCACAGUAUAUCGACCGGCCCGUGUGCUUCGUAGGGAAGCUGGAAAAGAUUCAUCCCA | 0.149 |
| AAAGAGUGGAUAGAAUGUGCACACGGGAUCGGUGGGACCCGGGCGAAAAAGGAGUGCAAGAUAGAGUUCGAUGACUUCGUAGAGUGUUUGCUUCGGUACAAAACGAUGAGGCGAAUGCAU | 0.359 |
| GCUCUUGGGAAUGUAAUCAGCGCCUUGGGGGACAAGAGCAAGAGAGCCACCCAUGUCCCUUACAGAGAUUCCAAGCUGACAAGACUCUUGCAGGAUUCCCUUGGGGGUAACAGCCAAACC | 0.12 |
| AAAGAACCUCUCUCUGAUGAAGAUGAGGAAGACAAUGAUGAUGUUGAACCUAUUACUGAAUUUCGAUUUGUGCCCAGUGAUAAGUCAGCGUUGGAGGCGAUGUUCACAGCAAUGUGUGAG | 0.294 |

Block 3 — target: CCND3, cyclin fold, Cln2 fusion (human); technique: yeast growth competition, sequencing; sample: yeast; notes: weak parent motif; reference: not given; direction: higher = stronger binding
Parent: CDC6 docking peptide (human); TLKGRRLVFDNQL; partner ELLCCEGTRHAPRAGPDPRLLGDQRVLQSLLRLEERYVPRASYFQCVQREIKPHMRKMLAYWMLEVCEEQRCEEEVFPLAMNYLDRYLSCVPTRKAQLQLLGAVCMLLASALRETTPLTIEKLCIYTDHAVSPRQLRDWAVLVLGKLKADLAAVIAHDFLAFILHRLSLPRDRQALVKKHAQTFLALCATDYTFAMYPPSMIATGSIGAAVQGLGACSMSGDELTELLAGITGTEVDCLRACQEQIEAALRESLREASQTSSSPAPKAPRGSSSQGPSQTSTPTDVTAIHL
| Substitution | normalised enrichment score |
| --- | --- |
| N11R | 0.158 |
| G4F | 0.0116 |
| L2W | 0.108 |
| V8N | 0.224 |
| L13V | 0.0937 |
| L7F | 0.0841 |

Mixed results
| Substance | target | test | system | setting | how to read | quantity | value |
| --- | --- | --- | --- | --- | --- | --- | --- |
| PhoQ, residues 284 288 289 292 302 303 SMMNNA | PhoP, residues 12 14 15 18 19 SEGLL (Escherichia coli, UniProt P23836) | Sort-seq, refers to: YFP reporter | E. coli | PhoQ-PhoP variant library, with: 10 µM Mg2+ | reference: high Mg2+ state, higher = stronger signaling | fold induction | 16.6 |

A few entries again (block 1):
| Oligonucleotide | E-score |
| --- | --- |
| AAGTGTCC | 0.0215 |
| CCTTCTGC | -0.0446 |
